Measured values pooled from the literature.
Every numbered part comes from another study and shows a few of its results, in no order.
Chain of UniProt P11802 (whole entry, looked up): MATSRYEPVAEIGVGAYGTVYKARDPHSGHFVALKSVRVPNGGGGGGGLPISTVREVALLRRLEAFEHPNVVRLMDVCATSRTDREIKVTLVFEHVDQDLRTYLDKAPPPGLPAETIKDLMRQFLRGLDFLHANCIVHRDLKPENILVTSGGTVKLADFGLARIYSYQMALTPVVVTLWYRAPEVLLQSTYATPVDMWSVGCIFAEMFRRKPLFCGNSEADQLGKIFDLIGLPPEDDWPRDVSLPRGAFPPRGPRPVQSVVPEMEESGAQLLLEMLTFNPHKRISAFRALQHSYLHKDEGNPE

Block 1 — technique: RNA Bind-n-Seq; form: RNA; sample: in vitro; concentration: 15 pmol; setting: 4-mer, random 30-nt RNA, single round; added: 3 µM DMDA-PatA, 2 mM AMP-PNP; baseline: input library; reading: higher = stronger binding
Target: Eukaryotic initiation factor 4A-I (EIF4A1, Homo sapiens, UniProt P60842, residues 1-406, full length assumed)
Chain of UniProt P60842 (whole entry, looked up): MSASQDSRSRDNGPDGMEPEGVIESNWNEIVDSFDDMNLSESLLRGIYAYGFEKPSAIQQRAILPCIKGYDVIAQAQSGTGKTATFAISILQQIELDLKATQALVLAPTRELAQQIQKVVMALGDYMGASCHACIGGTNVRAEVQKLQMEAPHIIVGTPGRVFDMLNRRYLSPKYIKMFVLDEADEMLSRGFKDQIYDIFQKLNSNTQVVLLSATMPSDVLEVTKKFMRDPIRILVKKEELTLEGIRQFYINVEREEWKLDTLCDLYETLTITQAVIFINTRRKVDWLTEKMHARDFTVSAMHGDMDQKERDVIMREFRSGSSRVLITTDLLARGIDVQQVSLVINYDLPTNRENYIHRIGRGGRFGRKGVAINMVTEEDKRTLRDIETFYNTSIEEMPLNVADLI
The 4-mer enrichment of `ACGA` is reported as 0.675 fold.
With `UAAA` the 4-mer enrichment was 0.981 fold.
With `GCCC` the 4-mer enrichment was 0.636 fold.
With `CGUA` the 4-mer enrichment was 1.53 fold.
`GUAA` has a 4-mer enrichment of 1.48 fold.
For `AGAU`, the 4-mer enrichment was 1.19 fold.
With `CGCA` the 4-mer enrichment was 0.749 fold.
With `GUCG` the 4-mer enrichment was 1.04 fold.

Block 2 — technique: RNA Bind-n-Seq; form: RNA; sample: in vitro; concentration: not given; baseline: input RNA pool; reading: higher = stronger binding
Target: RING finger protein unkempt homolog, zinc fingers 1-6, GST-SBP tag (UNK, Homo sapiens, UniProt Q9C0B0, residues 30-357)
Chain of UniProt Q9C0B0 (30-357, looked up): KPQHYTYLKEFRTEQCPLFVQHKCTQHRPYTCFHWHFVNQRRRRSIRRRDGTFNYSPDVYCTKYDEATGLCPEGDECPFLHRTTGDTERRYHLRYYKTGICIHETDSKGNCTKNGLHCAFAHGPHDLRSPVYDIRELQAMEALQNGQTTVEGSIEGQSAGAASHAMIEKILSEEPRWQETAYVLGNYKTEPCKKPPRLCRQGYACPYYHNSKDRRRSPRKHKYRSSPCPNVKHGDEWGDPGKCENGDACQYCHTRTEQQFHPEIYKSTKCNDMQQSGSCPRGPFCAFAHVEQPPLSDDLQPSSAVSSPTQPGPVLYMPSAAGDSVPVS
Setting: RNA with constant flanks, human-mouse chimeric sites, ends assumed
With `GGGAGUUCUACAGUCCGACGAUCUUUGUUUUUAUGCUAAGCACACGUGCUGGUGGUCUGGGCAUCAAUCUUGCAACUGCUGAUGUAGUCAUUUUAUAUGAUUCUGAUUGGAAUCCGCAAGUUGAUCUUCAGGCUAUGGACCGUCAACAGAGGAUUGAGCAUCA` the bound/input enrichment was 0.221 ratio.
For `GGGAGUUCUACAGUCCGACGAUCGCUCCUCUUCCGCACUCAGCCUGGGGACACUGGGCUGGGACCAGAAUCCAGCUUUCUUUUAAAACUCUCAGUGUAACUGUAUCCCGUGACAUUUCAUUUUUUUUAAAUAGUGUAUUUUUUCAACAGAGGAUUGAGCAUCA`, the bound/input enrichment was 3.93 ratio.
The bound/input enrichment of `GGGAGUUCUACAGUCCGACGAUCUCUGGUCACACUCGUGUGUAUGGUGUUUGCUUUGUGGACACUUCACUGGGCAAGUUUUUCAUCGGCCAGUUUUCGGAUGAUCGCCAUUGUUCCAGAUUUAGGACGCUAGUGGCUCACUAUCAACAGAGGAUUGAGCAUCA` is reported as 0.294 ratio.
With `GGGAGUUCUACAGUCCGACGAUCUUUGUAUUCAUGUUAAGCACACGUGCUGGUGGUCUGGGCAUCAAUCUUGCAACUGCUGAUGUAGUCAUUUUAUAUGACUCAGAUUGGAAUCCGCAAGUAGAUCUUCAGGCUAUGGACCGUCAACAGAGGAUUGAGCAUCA` the bound/input enrichment was 0.195 ratio.
For `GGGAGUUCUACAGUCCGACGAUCUUCAAAGAAAAGGGCAGCUGUGUCAUUUCAUAAGUAAAACUGCAUCCGGGAAAUUCUAACUAGUUUGUUAAUUUUCCCCCAAAUGAAGCCAAAGUGUGUGUUGAAGAACUGAGAAAAAAUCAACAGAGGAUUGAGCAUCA`, the bound/input enrichment was 0.321 ratio.
With `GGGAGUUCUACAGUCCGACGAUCUCGGAUGCUGUGCUGGGUCACUUUUCAUAUCCAGAUCCUUCCCAGUGGACAGAUGAAGAACUGGGAAUCCCUCCUGAUGACGAGGACUGAAGGUGUAAACUCUCUGGACGAGUAGGAGCACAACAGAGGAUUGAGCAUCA` the bound/input enrichment was 0.457 ratio.
For `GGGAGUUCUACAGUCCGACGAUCACCUCCCCCUCCCGCCUCACCCCACCCCCGCUUUUUGAAAGUGUGUUGGCGUUUCUUUUCCUUCCCCAUACAAAGUGAUUACAGUUUCCCCCGCAAGUGGGGCUUGAAGGGCUUGACGGACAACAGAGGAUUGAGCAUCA`, the bound/input enrichment was 0.626 ratio.
For `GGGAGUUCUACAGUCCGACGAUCGAGUCGAGCAAACUUGAAACAAUUCGUUAUCUUGCAGCCUCAGUGUUCACUUGCUUGGCGAUAGCAUUGGGGUUUUAUAGGUUCUGGAAGGAGAACUUUAAUGCUCAUCCUGCUGUGUGCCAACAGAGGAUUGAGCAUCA`, the bound/input enrichment was 0.299 ratio.

Mixed results
With `CN(C)C(=O)Cn1cc(-c2nc([C@@](C)(c3ccc(-c4cnc(N)nc4)cc3)C3CC3)no2)cn1` the remaining binding was 94% (Cyclin-dependent kinase 4, with cyclin D3 (CDK4, Homo sapiens, UniProt P11802); cell-free assay, competition with immobilised ligand; 1 µM).
For `CCOC(=O)[C@@H]1CSCC(=O)N[C@H](CC)C(=O)N(C)[C@@H](C)C(=O)N[C@@H](CC(C)C)C(=O)N2CCC[C@H]2C(=O)N(CC)CC(=O)N[C@@H](CC(C)C)C(=O)N(C)[C@@H](C)C(=O)N[C@@H](CC(C)C)C(=O)N1C`, the logD was -0.205 (hydrocarbon/water).

Repeated from above (block 2):
For `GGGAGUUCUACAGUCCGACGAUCGCUCCUCUUCCGCACUCAGCCUGGGGACACUGGGCUGGGACCAGAAUCCAGCUUUCUUUUAAAACUCUCAGUGUAACUGUAUCCCGUGACAUUUCAUUUUUUUUAAAUAGUGUAUUUUUUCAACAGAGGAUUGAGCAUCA`, the bound/input enrichment was 3.93 ratio.
The bound/input enrichment of `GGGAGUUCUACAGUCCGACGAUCUCUGGUCACACUCGUGUGUAUGGUGUUUGCUUUGUGGACACUUCACUGGGCAAGUUUUUCAUCGGCCAGUUUUCGGAUGAUCGCCAUUGUUCCAGAUUUAGGACGCUAGUGGCUCACUAUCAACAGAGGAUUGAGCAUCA` is reported as 0.294 ratio.
